Results pooled from the literature.
A part holds a random share of what one study measured.

Series 1
Target: Interferon regulatory factor 3, full length, phosphomimetic (IRF3, Homo sapiens, UniProt Q14653, residues 1-427, S386D/S396D/S398D/S402D/T404D/S405D)
Technique: protein-binding microarray
Molecule type: double-stranded DNA, one strand shown
Matrix: in vitro
Concentration: 2540 nM top
Setting: 60-bp whole probe
Together with: salmon DNA 0.4 mg/ml
Relative to: random background probes
Direction: higher = stronger binding
All sequences stand within: GCCTAGCAC … GTCTTGATTCGCTTGACGCTGCTG
Construct (chain): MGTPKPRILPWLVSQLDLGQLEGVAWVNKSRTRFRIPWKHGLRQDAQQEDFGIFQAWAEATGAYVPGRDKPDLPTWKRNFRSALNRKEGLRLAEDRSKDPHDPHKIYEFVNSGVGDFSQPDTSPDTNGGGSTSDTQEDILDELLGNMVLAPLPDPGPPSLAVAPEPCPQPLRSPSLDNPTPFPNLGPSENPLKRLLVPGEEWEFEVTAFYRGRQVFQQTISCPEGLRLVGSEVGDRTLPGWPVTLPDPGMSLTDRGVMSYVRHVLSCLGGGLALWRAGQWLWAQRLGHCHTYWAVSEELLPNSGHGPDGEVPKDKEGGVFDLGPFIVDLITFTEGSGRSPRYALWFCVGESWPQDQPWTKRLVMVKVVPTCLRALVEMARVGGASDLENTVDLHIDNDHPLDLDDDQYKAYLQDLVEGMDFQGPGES
Strand | fitted relative affinity
GACGGTTTCGACTATCGGGACGTGCTA | 3.04 z-score
TGCACTCTCTACATGTGTTTGTGCTAG | 0.185 z-score
TTAGGTATCGGGTATCGGTTAGTGCTA | 2 z-score
TTAGATTTCAGTCTCGATGAGTGCTAG | 2.27 z-score
GACGATTTCGGGAGTGGAGACGTGCTA | 1.18 z-score
CTCTGGTTCTTGCTTGGTGTCGTGCTA | -0.462 z-score
TCTAATCTCACTCTGTCCCTGTGCTAG | 0.411 z-score
TCACCACCCGCTCTGGCACTGTGCTAG | -0.346 z-score

Series 2
Structure (SMILES): O=C(O)c1ccc(SSc2ccc(C(=O)O)cn2)nc1
Read-out: enzyme activity
Action: inhibitor
rep main protease: Replicase polyprotein 1ab, main protease (rep, Severe acute respiratory syndrome coronavirus 2, UniProt P0DTD1)
target | concentration | setting | inhibition [%]
Replicase polyprotein 1ab, 3C-like proteinase (rep, Middle East respiratory syndrome-related coronavirus, UniProt K9N7C7) | 10 µM |  | 8
rep main protease | 20 µM | hit confirmation | 98.9
rep main protease | 20 µM | primary screen | 100

Series 3
Cell line: HEK-293T-ACE2
Concentration: concentration not given
Relative to: vehicle
Compound | cell number [%]
O=[As]O[As]=O (stereo not shown) | 99.7
C[C@@H](O)[C@H]1C(=O)N2C(C(=O)O)=C(S[C@@H]3CN[C@H](CNS(N)(=O)=O)C3)[C@H](C)[C@H]12.O | 105
CCCCC(O)c1ccccc1 (stereo not shown) | 99

Series 4
Target: Replicase polyprotein 1ab, polymerase (rep, Severe acute respiratory syndrome coronavirus 2, UniProt P0DTD1)
Read-out: enzyme activity
Action: inhibitor
Concentration: 20 µM
Structure (SMILES) | inhibition [%]
C[C@@H]1CN(Cc2ccc(F)cc2)[C@@H](C)CN1C(=O)c1cc2c(C(=O)C(=O)N(C)C)cn(C)c2cc1Cl | 1.67
Cc1nnc(C(C)C)n1[C@@H]1C[C@H]2CC[C@@H](C1)N2CC[C@H](NC(=O)C1CCC(F)(F)CC1)c1ccccc1 | -1.39
C[N+]1([O-])[C@@H]2C[C@@H](OC(=O)[C@H](CO)c3ccccc3)C[C@H]1[C@@H]1O[C@@H]12 (stereo partly shown) | -2.52
CC1(C)S[C@@H]2[C@H](NC(=O)[C@H](NC(=O)N3CCNC3=O)c3ccccc3)C(=O)N2[C@H]1C(=O)O | -0.98
CC(C)(C(=O)NCC(F)(F)C(F)(F)F)C(=O)N[C@@H]1C(=O)Nc2ccccc2-c2ccccc21 | 2.52
COc1c(C)c(C(=O)c2ccc(N)c(C(=O)O)c2)n2ccccc12 | 5.45
O=C(O)c1cc2cc(Cc3cccnc3)ccc2o1 | 5.24
C=CC[C@@H]1/C=C(\C)C[C@H](C)C[C@H](OC)[C@H]2O[C@@](O)(C(=O)C(=O)N3CCCC[C@H]3C(=O)O[C@H](/C(C)=C/[C@@H]3CC[C@@H](O)[C@H](OC)C3)[C@H](C)[C@@H](O)CC1=O)[C@H](C)C[C@@H]2OC | 0.05

Some of these lines once more (series 4):
Structure (SMILES) | inhibition [%]
C[N+]1([O-])[C@@H]2C[C@@H](OC(=O)[C@H](CO)c3ccccc3)C[C@H]1[C@@H]1O[C@@H]12 (stereo partly shown) | -2.52
CC1(C)S[C@@H]2[C@H](NC(=O)[C@H](NC(=O)N3CCNC3=O)c3ccccc3)C(=O)N2[C@H]1C(=O)O | -0.98
CC(C)(C(=O)NCC(F)(F)C(F)(F)F)C(=O)N[C@@H]1C(=O)Nc2ccccc2-c2ccccc21 | 2.52
COc1c(C)c(C(=O)c2ccc(N)c(C(=O)O)c2)n2ccccc12 | 5.45
